Measured values pooled from the literature.
A part holds a random share of what one study measured.

Block 1
Target: RNA binding protein fox-1 homolog 2, RRM domain, GST-SBP tag (RBFOX2, Homo sapiens, UniProt O43251-10, residues 100-194)
Technique: RNA Bind-n-Seq
Molecule type: RNA
Medium: in vitro
Concentration: 365 nM
Notes: natural RNA segment, single round, ends assumed
Relative to: no-protein control
Reading: higher = stronger binding
Construct (chain): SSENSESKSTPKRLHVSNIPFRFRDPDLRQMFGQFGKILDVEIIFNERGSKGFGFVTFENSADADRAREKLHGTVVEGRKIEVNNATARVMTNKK
Oligonucleotide | RBNS enrichment (R)
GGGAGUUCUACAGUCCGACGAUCACUUAGCCCUCAAAUUUCAGUAUCUAUACAGUACUAGACCAUGCAUUCUUAAAAUAUUAGAUACCAGGUAGUAUAUAUUGUUUCUGUACAAAAAUGACUGUAUUCUCUCAUGGAAUUCUCGGGUGCCAA | 0.353
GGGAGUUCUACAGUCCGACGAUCCUUCUGGCUCCUGUGAGGGCACUGUAUUGUCCAGACGCUUGGCAACGACUCUGCCUGCAAGUGGCAAAUACCAACAUAACCACAUCUUCCUUUUAGUUGCCACAAAUAUUUGGAAUUCUCGGGUGCCAA | 0.858
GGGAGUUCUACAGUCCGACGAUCUAUUCCCUGACGGAGCUGUUAUGUGCCGCUCUAGCGAAGGCCCCAGCCGGGAUGCUAGGCCUAAUUGUUCAGCGUGGAGAUGGCAACUCACGUGGUGCCCUAGGUGCAGCUGGAAUUCUCGGGUGCCAA | 0.886
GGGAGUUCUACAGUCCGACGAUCAGAAUAUUGUUCGAAGAAUGUCUGUGAAUGCAGACAUGGGUCCUGCUUAGUGCCAUAGGUAGACUGAGUCUUCUGUAAGUCAUCAUUACAUAGUAAUUUUGGUUCUGAAUUGGAAUUCUCGGGUGCCAA | 0.249
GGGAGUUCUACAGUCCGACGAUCUGAUACUGUGUGCGACGUGGAGAGAUUUAAUUAUUUGUAAUAAAGGAUUUGCUAUGGUCUAUUAAUUCCAAGUGGUACGCCUGUAUGUUUUUCCUUAAAAUUGAGUAUUUUGGAAUUCUCGGGUGCCAA | 1.32
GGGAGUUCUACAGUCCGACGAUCAUUUUGAGCCAUUAAUGAUUUUGGGUUUUUUAAUCCAGAAGGUAUAUAAAAGCCUUUUCAGAGUUUUCAUCUGAUUUGUCCUGAGGAUCUAGUUCUAUCAAAUACCUUAUUGGAAUUCUCGGGUGCCAA | 0.493
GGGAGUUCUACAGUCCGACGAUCGCAGAAGCCAAAUUUUUUGUAUAUUAAAGCACCAAAUUCAUGUACAGCAUGCAUCACGGAUCAAUAGACUGUACUUAUUUUCCAAUAAAAUUUUCAAACUUUGUACUGUUUGGAAUUCUCGGGUGCCAA | 2.2
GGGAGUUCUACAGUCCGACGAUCCCACCCGUGACUGUAAGAAUGCUCUCUGGGAGGACUUCCACCGGGGCAGAGCAGGCUGCCCAGCCGAAGCGGGAAGGGCAUGUUGGGCAAGCUGCUGGAGCGACUGAUGUUGGAAUUCUCGGGUGCCAA | 1.61

Block 2
Target: Ras GTPase-activating protein-binding protein 1, full length (G3BP1, Homo sapiens, UniProt Q13283)
UniProt Q13283, sequence (whole entry, looked up): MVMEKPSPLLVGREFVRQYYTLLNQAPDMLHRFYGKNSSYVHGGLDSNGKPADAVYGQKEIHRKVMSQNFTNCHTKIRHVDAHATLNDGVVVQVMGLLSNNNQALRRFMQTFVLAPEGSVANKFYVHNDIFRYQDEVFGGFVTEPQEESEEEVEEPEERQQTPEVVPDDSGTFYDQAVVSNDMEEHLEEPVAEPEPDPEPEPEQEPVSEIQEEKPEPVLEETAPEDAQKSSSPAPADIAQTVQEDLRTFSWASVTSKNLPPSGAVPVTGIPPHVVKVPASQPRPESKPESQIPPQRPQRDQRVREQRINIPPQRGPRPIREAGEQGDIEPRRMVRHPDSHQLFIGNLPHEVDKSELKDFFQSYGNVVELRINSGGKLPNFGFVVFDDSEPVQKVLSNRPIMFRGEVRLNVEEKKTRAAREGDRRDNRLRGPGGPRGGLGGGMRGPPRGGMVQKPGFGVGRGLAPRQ
Technique: RNA Bind-n-Seq
Molecule type: RNA
Medium: in vitro
Concentration: 200 nM
Notes: whole 134-nt RNA, ends assumed
Added: 150 mM KCl
Relative to: input library
Reading: higher = stronger binding
Oligonucleotide | log2 enrichment
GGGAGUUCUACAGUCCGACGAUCGUCCUGUGCUACACAUCGUAUGUACCGAAUCGGGGUUUUUUUGGGGAGGGGUUUGGGGAAAGUAUUAUGUUACGCCGUUCGGAUCUGCACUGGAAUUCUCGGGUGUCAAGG | 0.24
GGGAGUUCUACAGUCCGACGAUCUGGGAGGCGGAUUUUGUUUAUUUUUUUAGCUCAUUUCCAGGGGUGGGAAUUUUUUUUUAAUAUGUGUCAUGAAUAAAGUUGUUUUUGAAAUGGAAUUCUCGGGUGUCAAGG | -0.098
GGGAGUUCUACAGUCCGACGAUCUGGCCCUGGUGGCAAGCGGGGAGGAAGAGGUGGCCUCAUGGAUCGUGGUGGUCCCGGUGGAAUGUUCAGAGGUGGCCGUGGUGGAGACAGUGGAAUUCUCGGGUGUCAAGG | 0.21
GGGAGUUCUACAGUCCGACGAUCAAGUCCUGUGCUACACAUCGUAUGUACCGAAUCAAAUUUAAACCCCCAAACCCAAAAAAGUAUUAUGUUACGCCGUUCGGAUCUGCACUUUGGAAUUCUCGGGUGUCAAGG | -0.47
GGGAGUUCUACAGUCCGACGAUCGCAGGAAGUAAAAACAAAUGGAAAUGCUUCGGAUAGUGGCAGGGGUGGGGGUUGCUAAGGCAAGGGUGGGAUGGGAGUGGGUAAAGAGUUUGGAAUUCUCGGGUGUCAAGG | 0.748
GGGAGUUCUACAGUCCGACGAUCAAGUCCUGUGCUACACAUCGUAUGUACCGAAUCGGGGCCCGGGCCCGGGGCCCGGGAAAGUAUUAUGUUACGCCGUUCGGAUCUGCACUUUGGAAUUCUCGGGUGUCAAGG | -1.08
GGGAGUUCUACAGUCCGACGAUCGUCCUGUGCUACACAUCGUAUGUACCGAAUCGGAAAAAGGAAAAAAAGGUUUUUUUGGAAAGUAUUAUGUUACGCCGUUCGGAUCUGCACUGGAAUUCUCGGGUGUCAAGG | -1.44
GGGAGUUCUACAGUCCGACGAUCCAAGUCCUGUGCUACACAUCGUAUGUACCGAAUCGGGAAAGGGGAAAGGAAAGGGGAAAGUAUUAUGUUACGCCGUUCGGAUCUGCACUUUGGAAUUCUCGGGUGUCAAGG | 0.303
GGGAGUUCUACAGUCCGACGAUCCAAGUCCUGUGCUACACAUCGUAUGUACCGAAUCGGAAAAAGGUUUUUGGAAAGGAAAGUAUUAUGUUACGCCGUUCGGAUCUGCACUUCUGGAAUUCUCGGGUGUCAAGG | -1.36

Block 3
Target: RING finger protein unkempt homolog, zinc fingers 1-6, GST-SBP tag (UNK, Homo sapiens, UniProt Q9C0B0, residues 30-357)
Technique: RNA Bind-n-Seq
Molecule type: RNA
Medium: in vitro
Concentration: not given
Notes: RNA with constant flanks, human-mouse chimeric sites, ends assumed
Relative to: input RNA pool
Reading: higher = stronger binding
Residues (chain): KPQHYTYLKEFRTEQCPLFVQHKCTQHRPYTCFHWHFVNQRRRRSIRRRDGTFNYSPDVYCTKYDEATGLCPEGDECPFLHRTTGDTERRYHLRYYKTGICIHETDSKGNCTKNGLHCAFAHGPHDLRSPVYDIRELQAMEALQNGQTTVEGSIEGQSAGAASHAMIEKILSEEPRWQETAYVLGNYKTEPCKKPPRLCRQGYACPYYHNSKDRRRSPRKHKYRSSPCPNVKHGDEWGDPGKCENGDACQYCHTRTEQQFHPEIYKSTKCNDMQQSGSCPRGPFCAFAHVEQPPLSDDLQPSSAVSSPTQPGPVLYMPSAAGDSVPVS
Oligonucleotide | bound/input enrichment [ratio]
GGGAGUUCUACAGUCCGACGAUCUUUGUAUUCAUGUUAAGCACACGUGCUGGUGGUCUGGGCAUCAAUCUUGCAACUGCUGAUGUAGUCAUUUUGUAUGACUCAGAUUGGAAUCCGCAAGUUGAUCUUCAGGCUAUGGACCGUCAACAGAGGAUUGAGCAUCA | 0.131
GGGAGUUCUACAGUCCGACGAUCGCUGAAAAUGAAGAAGAGGCAGCUGAUGUCUGGUACAACCUGGGGCACAUAGCUGUGGGAAUAGGAGAUACAAACUUGGCCCAUCAGUGCUUCAGGCUGGCCCUGGUCCACAACAACCACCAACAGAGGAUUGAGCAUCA | 0.283
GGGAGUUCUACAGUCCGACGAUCAGAGAAAUGAGAAAGAAUCUCACACAAGAAGAGAUGCAAAGAAUGUCUACUAGAGUCCUUUUGGCGACUCUUUCCAUUCCUAUUACUCCUGAGCGAACUGAUAUUGCUCGACUUUUGGAUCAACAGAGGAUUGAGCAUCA | 0.135
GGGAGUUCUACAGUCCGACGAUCACACAAUAUGAGACCAACAGCAUGGACUUCAAAGUUGGGGCAGAUGGGACAGUCUUCGCCACCCGGGAGCUGCAGGUCCCCUCCGAGCAGGUGGCGUUUACCGUCACUGCAUGGGACAGCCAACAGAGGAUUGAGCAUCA | 0.158
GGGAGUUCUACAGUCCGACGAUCGACAGUGAAGAAGAAAUUAGAGAAGCAUUCCGUGUGUUUGAUAAGGAUGGCAAUGGCUAUAUUAGUGCAGCAGAGCUUCGCCAUGUGAUGACAAACCUUGGCGAGAAGUUAACAGAUGAACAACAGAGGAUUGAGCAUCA | 1.9
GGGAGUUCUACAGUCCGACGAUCCUGUGUGUGCUGAAUAAUGAUUUGUGAAAGAAGUUUUUCCAAGCUGUAACCCAUGCUGUUAUUAUAGUUGCUGCAAAAUGUUCUUCCUGAUAUUGAUUUUAUUUGUUAACUGAAGGUCUCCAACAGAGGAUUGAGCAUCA | 0.408
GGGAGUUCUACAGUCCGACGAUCACAGUUAUAUUGUUGAGGUUUGUAUUUAUAUAUUCUUGUAGUGUCUGCUUGCCUGUGACUUCUGGUAAAAUAAAAUAAGCCUUUGAAAAUAUUUUAGCAUGGUAUUUUUCUAAAAAUAAACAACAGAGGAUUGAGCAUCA | 1.63
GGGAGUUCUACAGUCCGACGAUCGUGUCCUGCUUUCAACUAUCACUGAGGAGGCAUCUCUACUGUUCUGUGAGCAUCAGGACUGUAGCGCUGUGUCACCACAUGAGAGUUGUUAAGCAGCCUUUCUGUGGAGGGUGGGAAUGACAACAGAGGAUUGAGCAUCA | 0.0816

Block 4
Target: Sal-like protein 4, full length isoform A (SALL4, Homo sapiens, UniProt Q9UJQ4, residues 1-1053)
UniProt Q9UJQ4, sequence (whole entry, looked up): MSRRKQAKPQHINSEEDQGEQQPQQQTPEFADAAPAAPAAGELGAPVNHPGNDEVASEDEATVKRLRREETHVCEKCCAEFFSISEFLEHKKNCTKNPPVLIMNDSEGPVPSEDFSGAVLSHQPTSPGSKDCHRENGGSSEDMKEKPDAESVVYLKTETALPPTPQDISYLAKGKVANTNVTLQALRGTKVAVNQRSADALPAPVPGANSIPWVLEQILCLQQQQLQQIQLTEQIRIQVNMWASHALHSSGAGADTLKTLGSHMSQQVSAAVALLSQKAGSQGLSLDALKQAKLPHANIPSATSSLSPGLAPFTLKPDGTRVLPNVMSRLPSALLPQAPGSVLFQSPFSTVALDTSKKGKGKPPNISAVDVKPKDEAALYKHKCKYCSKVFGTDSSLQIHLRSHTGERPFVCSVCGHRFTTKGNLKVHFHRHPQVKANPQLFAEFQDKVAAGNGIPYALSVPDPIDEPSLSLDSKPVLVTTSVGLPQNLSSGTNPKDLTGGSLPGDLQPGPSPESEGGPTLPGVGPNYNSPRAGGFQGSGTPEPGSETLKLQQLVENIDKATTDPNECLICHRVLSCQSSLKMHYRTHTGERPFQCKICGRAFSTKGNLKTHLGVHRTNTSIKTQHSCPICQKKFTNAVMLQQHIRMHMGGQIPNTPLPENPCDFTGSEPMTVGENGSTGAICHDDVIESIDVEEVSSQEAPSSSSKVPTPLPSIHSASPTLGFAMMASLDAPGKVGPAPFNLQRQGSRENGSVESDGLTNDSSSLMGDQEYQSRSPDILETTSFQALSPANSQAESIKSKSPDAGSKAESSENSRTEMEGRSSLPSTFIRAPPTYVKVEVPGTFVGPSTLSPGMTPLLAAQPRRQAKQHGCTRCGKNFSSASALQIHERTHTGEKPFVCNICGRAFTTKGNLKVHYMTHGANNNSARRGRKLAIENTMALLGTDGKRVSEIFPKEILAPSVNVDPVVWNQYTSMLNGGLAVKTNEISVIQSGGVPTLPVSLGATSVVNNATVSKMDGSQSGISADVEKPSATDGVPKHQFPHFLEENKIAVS
Technique: universal PBM
Molecule type: double-stranded DNA, one strand shown
Medium: in vitro
Concentration: 600 nM
Notes: 8-mer, flanks averaged, mean of replicates
Reading: higher = stronger binding
Oligonucleotide | E-score
ACCCTGGG | -0.328
AAGAGTTA | 0.192
GTGTCGTA | 0.0016
CGTACGGC | -0.11
AATTATCG | 0.37
GACGTTCA | -0.0222
ACCTGAGT | -0.0803
TATCGAGA | 0.131
CCTGACAA | -0.00035
CGCTTTGA | -0.0219
CCGCCCGC | -0.331
AACTCTAG | 0.0847
AGTTCAAC | 0.0428
AAGGGGAA | -0.128
CCGGCGGA | -0.295
AGCCGCTC | -0.116
CCTCCTTA | -0.118
ACGACACC | -0.156
CCTGACTA | 0.101
GCGGGTAC | -0.154
CAGCTCGG | -0.285
GGTGCTTA | -0.121
CCAGCACA | -0.0636
TCGAAGCA | 0.0301
AAGGGTAG | -0.0508
